Experimental data collected from several papers.
Protocols differ between the studies behind these lines. Several values in a cell are separate wells, animals, samples, runs or records. ± gives the spread as reported.
Sequence of UniProt Q9Y6I4 (whole entry, looked up): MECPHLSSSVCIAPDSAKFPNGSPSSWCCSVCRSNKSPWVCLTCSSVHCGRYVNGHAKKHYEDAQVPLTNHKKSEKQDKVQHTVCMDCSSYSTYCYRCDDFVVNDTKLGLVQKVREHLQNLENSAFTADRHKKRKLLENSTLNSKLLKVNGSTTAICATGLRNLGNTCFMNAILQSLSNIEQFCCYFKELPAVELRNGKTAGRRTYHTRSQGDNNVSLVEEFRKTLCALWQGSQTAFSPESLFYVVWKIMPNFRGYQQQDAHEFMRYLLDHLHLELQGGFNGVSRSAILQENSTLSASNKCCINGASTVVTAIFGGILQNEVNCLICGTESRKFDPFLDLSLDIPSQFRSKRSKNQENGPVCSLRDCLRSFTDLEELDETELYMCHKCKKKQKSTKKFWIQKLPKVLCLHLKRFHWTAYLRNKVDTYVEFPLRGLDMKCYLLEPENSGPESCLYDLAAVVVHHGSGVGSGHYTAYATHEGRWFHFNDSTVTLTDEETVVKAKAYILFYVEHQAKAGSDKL

SMILES | target or system | test | test system | setting | scale | quantity | value
O=c1oc2c(O)c(O)cc3c(=O)oc4c(O)c(O)cc1c4c23 |  | LC-MS/MS | male Ross 308 broilers, serum | oral, dose not given |  | serum concentration | not detected
C=CC(=O)Nc1cc(Nc2nccc(-c3cn(C4CC4)c4ccccc34)n2)c(OC)cc1N(C)CCN(C)C |  | freeze-thaw stability | rat plasma | 160 ng/mL, three freeze-thaw cycles | relative to: nominal concentration | relative error | -0.9%
O=C(Nc1nc2cccc(-c3ccc(CN4CCS(=O)(=O)CC4)cc3)n2n1)C1CC1 |  | item: hypercholesterolaemia | human rheumatoid arthritis patients | oral, 30 mg once daily, 4 weeks, regardless of relatedness |  | treatment-emergent adverse events | 0%
Cn1ncnc1[C@H]1c2n[nH]c(=O)c3cc(F)cc(c23)N[C@@H]1c1ccc(F)cc1 |  |  | human patients, plasma | oral, 600 µg/m2 twice daily, day 1, monotherapy, dose level DL6, median |  | AUC(0-8h) | 27.8 ng·h/mL
Cn1cc(Nc2nccc(-c3ccc4c(c3)CN(C3COC3)CC[C@H]4NC(=O)c3cn(C(C)(C)C)nn3)n2)cn1 |  |  | human, whole blood | 50 mg twice daily, day 14 | relative to: pre-dose baseline | CD3+ T cell count change | 1.43%
O=C(O)Cn1cc2ccccc2n1 | Ubiquitin carboxyl-terminal hydrolase 3, ZnF-UBD domain (USP3, Homo sapiens, UniProt Q9Y6I4) |  |  |  |  | Kd | 519 µM
OCc1nc2ccc(NCc3ccc(C(F)(F)F)cc3)cc2[nH]1 |  |  | Balb/c mice, male, plasma | oral, 10 mg/kg |  | MRT(0-inf) | 1.93 ± 0.2 h
NC(=O)CCNC(=O)c1ccc([C@H]2[C@@H](F)[C@@H](F)C[C@@H](F)[C@H]2F)cc1 |  | liver microsome stability | human liver microsomes | 1 µM, without NADPH |  | hepatic clearance | 3.9 mL/min/kg
CCc1c(-c2ccccc2)c(-c2ccccc2)nn1-c1ccccc1-c1cccc(OCC(=O)O)c1 |  |  | female Sprague-Dawley rat, uterus homogenate | oral, 10 mg/kg, 1 h |  | concentration | 197 ng/mL
C[C@@H](Oc1ccc(S(C)(=O)=O)cc1C(=O)N1C[C@@H]2C[C@]2(c2cc(C(F)(F)F)on2)C1)C(F)(F)F |  | radioprofiling | human, plasma | oral, 25 mg, mean |  | AUC(0-168 h) | 14.2 µM·h
COc1cc(Nc2ncc3c(n2)-c2ccc(Cl)cc2C(c2c(F)cccc2OC)=NC3)ccc1C(=O)O |  | item: Hypophosphatemia, all grades | cancer patients, phase 1/2 | oral, dose not given, added: pembrolizumab |  | patients with adverse event | 17%
CN1C(=O)[C@@H](NC(=O)c2nnc(Cc3ccccc3)[nH]2)COc2cccnc21 |  | phase I multiple ascending dose | human, male and female | oral, 200 mg, 14 days |  | TEAE leading to permanent discontinuation | 0%
CCOc1c([C@H](C)n2nc(C)c3c(N)ncnc32)cc(Cl)c(F)c1[C@@H]1CNC(=O)C1 |  | item: QTcF change ≤30 ms | previously treated B-cell malignancy | oral, 45 mg once daily, overall population | relative to: baseline | ECG observations | 100%
CC(=O)O[C@H]1C(=O)[C@@]2(C)[C@H]([C@H](OC(=O)c3ccccc3)[C@]3(O)C[C@H](OC(=O)[C@H](O)[C@@H](NC(=O)c4ccccc4)c4ccccc4)C(C)=C1C3(C)C)[C@]1(OC(C)=O)CO[C@@H]1C[C@@H]2O |  | item: Vomiting | patients with advanced solid tumours | intravenous, dose not given, grade 1 and 2, possibly related to drug |  | adverse event incidence | 22%
CNC(=O)c1ccc(-c2cnc3ncc(Cc4ccc5ncccc5c4)n3n2)cc1F |  | item: Dyspepsia, all grades | cancer patients | oral, dose not given, dose escalation, any causality |  | patients with adverse event | 8%
CC(C)(C(=O)N1CCOc2c(C#N)cncc2C1)C(F)F |  | item: general and administration site conditions | healthy humans, both sexes | oral, 30 mg single dose |  | subjects with TEAE | 16.7%
Nc1ncnc2c1c(-c1ccc(Oc3ccccc3)cc1)nn2[C@@H]1CCCN(C(=O)C(O)CO)C1 (some centres unmarked) |  | item: maximal concentration | B-LPD patients | hypertension risk threshold, ROC |  | specificity | 70.7%
OC[C@H]1O[C@@H](c2ccc(Cl)c(Cc3ccc(O[C@H]4CCOC4)cc3)c2)[C@H](O)[C@@H](O)[C@@H]1O |  |  | Japanese type 1 diabetes patients, blood | 2.5 mg, day 28 | relative to: baseline | change in LDL cholesterol | 4.54 mg/dL
Cc1cc(Nc2cc3ncccc3c(N[C@@H]3C[C@H]4CC[C@@H](C3)N4CCC#N)n2)n[nH]1 |  |  | healthy human | oral, 30 mg multiple doses, 14 days |  | subjects with contact dermatitis | 0%
CCOCc1nc(O)c(-c2nnc(Cc3ccc(Cl)cn3)o2)c(O)c1-c1c(OC)cccc1OC |  |  | rat, post surgery, plasma | oral, 0.2 mg/kg once daily, day 6 post surgery |  | trough concentration | 9 nM
CCCCC1=NC2(CCCC2)C(=O)N1Cc1ccc(-c2ccccc2S(=O)(=O)Nc2noc(C)c2C)c(COCC)c1 |  |  | healthy adult volunteers, plasma | oral, 400 mg, single dose, fasted, crushed tablet |  | Cmax | 6970 ng/mL
O=C(Cc1cccnc1)Nc1ccc([C@H]2[C@@H](F)[C@@H](F)C[C@@H](F)[C@H]2F)cc1 |  |  | rat liver microsomes | 1 µM |  | hepatic clearance | 16 mL/min/kg
NC1(C(=O)N[C@@H](CCO)c2ccc(Cl)cc2)CCN(c2nc[nH]c3nccc2-3)CC1 |  |  | metastatic CRPC patients | 400 mg b.i.d., grade 3 to 4, treatment-related, added: enzalutamide 160 mg daily |  | incidence of Pyrexia | 0%
CO[C@H]1C[C@@H]2CC[C@@H](C)[C@@](O)(O2)C(=O)C(=O)N2CCCC[C@H]2C(=O)O[C@H]([C@H](C)C[C@@H]2CC[C@@H](O)[C@H](OC)C2)CC(=O)[C@H](C)/C=C(\C)[C@@H](O)[C@@H](OC)C(=O)[C@H](C)C[C@H](C)/C=C/C=C/C=C/1C |  |  | healthy adult horses | intravenous, 0.06 mg/kg, 2 h |  | heart rate | 34 ± 2.8 beats/min

SMILES | target or system | test | test system | setting | scale | quantity | value
O=C(NCc1cc[nH]n1)c1ccc([C@H]2[C@@H](F)[C@@H](F)C[C@@H](F)[C@H]2F)cc1 |  | liver microsome stability | mouse liver microsomes | 1 µM |  | hepatic clearance | 14 mL/min/kg
CCc1cc(C(=O)NC)c2nccc(N3CCc4c(cc(Cn5ccnc5)cc4-c4cn(C)nc4C(F)(F)F)C3=O)c2c1 |  | item: HDW | Sprague Dawley rat | oral, 50 mg/kg once daily, 7 days | relative to: vehicle | change in clinical chemistry or haematology parameter | 7.43%
C[C@H]1C=C(Cc2ccccc2)C(=O)O1 |  |  | clay soil | pH 7.3, organic carbon 5.6 % |  | KFoc | 32 mL/g
CN(C)CCC(=O)Nc1ccc(C2CCCCC2)cc1 |  | liver microsome stability | cynomolgus liver microsomes | 1 µM |  | hepatic clearance | 35 mL/min/kg
[18F]c1ccc(-c2ccc3c(c2)[nH]c2ccncc23)cn1 |  | ex vivo biodistribution | B6SJL mouse, normal, heart | intravenous, 30 min |  | SUV | 0.625 ± 0.181
CCCCC(CC)COC(=O)CC(C(=O)OCC(CC)CCCC)S(=O)(=O)O.O=C(NCCCNc1nc(Nc2cccc(NC(=O)N3CCCC3)c2)ncc1I)c1cccs1 |  | thermogravimetric analysis |  | nitrogen 10 °C/min |  | degradation onset temperature | ~230 °C
FC(F)(F)c1ccc(CNc2ccc(Cc3c[nH]c4ncc(Cl)cc34)cn2)cn1 |  | item: Headache | patients with advanced solid tumours, non-TGCT cohort | oral, 1000 mg/day, grade 3 or higher |  | treatment-related adverse events | 0%
CC1=NN(/C(=N\c2ccccc2)Nc2nnc(C)s2)C(c2ccc(C)cc2)S1 (centres unmarked) |  | plasma stability | rat plasma |  |  | half-life | 5.9 min
CC(C)C[C@H](NC(=O)[C@@H](N)C(C)C)C(=O)N[C@@H](CCCNC(=N)N)C(=O)N[C@@H](Cc1c[nH]c2ccccc12)C(=O)N[C@@H](CO)C(=O)N[C@@H](CCCNC(=N)N)C(=O)N[C@@H](CCCCN)C(=O)N[C@@H](CC(C)C)C(=O)N1CCC[C@H]1C(=O)N[C@@H](CS)C(=O)N[C@H](C(=O)N[C@@H](CO)C(N)=O)C(C)C |  | 12G5 competition, SUP-T1 cells | human plasma | 20 µM, 2 h, 37 °C |  | remaining activity | 24 ± 4%
COCCC(=O)Nc1ccc(C2CCCCC2)cc1 |  | liver microsome stability | dog liver microsomes | 1 µM |  | hepatic clearance | 29 mL/min/kg
COc1cc(Nc2ncc3c(n2)-c2ccc(Cl)cc2C(c2c(F)cccc2OC)=NC3)ccc1C(=O)O |  | population PK modelling | cancer patients East Asian, plasma | oral | relative to: non-East Asian | relative bioavailability increase | 48%
CCN1/C(=C/C(C)=O)Sc2ccc(F)cc21 |  |  | cynomolgus monkey | oral, 10 mg/kg, 4 h post-dose |  | PR interval | 95 ± 2 ms
C=CC(=O)NC1CCN(c2ncc3ncnc(Nc4ccc(Oc5ccc6c(c5)ncn6C)c(C)c4)c3n2)CC1 |  |  | human, male, plasma | oral, 240 mg single dose, fasted, geometric mean |  | AUC(0-tz) | 47 µM·h
CN1CCN(C(=O)c2ccc([C@H]3[C@@H](F)[C@@H](F)C[C@@H](F)[C@H]3F)cc2)CC1 |  | liver microsome stability | rat liver microsomes | 1 µM |  | hepatic clearance | 19 mL/min/kg
O=C(N[C@H](Cc1c[nH]c2ccccc12)C(=O)Nc1ccncc1)c1ccc(N2CCN(c3ccc(F)cc3F)CC2)cc1F |  |  | Swiss Webster mouse, female, brain | oral, 50 mg/kg, 8 h, 20% HPβCD vehicle |  | concentration | 580 nM
O=c1[nH]cc([C@@H]2O[C@H](CO)[C@@H](O)[C@H]2O)c(=O)[nH]1 |  | ultrafiltration | normal rat serum | 37 °C |  | serum protein binding | < 24%
CNCc1ccc(-c2[nH]c3cc(F)cc4c3c2CCNC4=O)cc1 |  |  | human patients | oral, 600 mg twice daily, grade 2 |  | pulmonary embolism incidence | 0%
C[Si]1(C)O[Si](C)(C)O[Si](C)(C)O[Si](C)(C)O[Si](C)(C)O[Si](C)(C)O1 |  | IVIVE from S9 | rainbow trout (Oncorhynchus mykiss) |  |  | hepatic biotransformation rate constant | 0.018 h⁻¹ and 0.024 h⁻¹ and 0.032 h⁻¹
O=C(NCCN1CCCC1=O)c1ccc(C2CCCCC2)cc1 |  | liver microsome stability | dog liver microsomes | 1 µM |  | hepatic clearance | 25 mL/min/kg
O=C(c1ccc(F)cc1)C1CCN(CCn2c(=O)[nH]c3ccccc3c2=O)CC1 |  |  | rat liver microsomes |  |  | intrinsic clearance | 140 mL/min/kg
CC[C@@H]([C@H](C)O)n1ncn(-c2ccc(N3CCN(c4ccc(OC[C@@H]5CO[C@@](Cn6cncn6)(c6ccc(F)cc6F)C5)cc4)CC3)cc2)c1=O |  |  | rat plasma | 800 ng/mL, three freeze-thaw cycles | relative to: nominal concentration | stability relative error | -12.8%
CO[C@H]1C[C@@H]2CC[C@@H](C)[C@@](O)(O2)C(=O)C(=O)N2CCCC[C@H]2C(=O)O[C@H]([C@H](C)C[C@@H]2CC[C@@H](OC(=O)NCCOCCOCCOCCOCCOCCOCCOCCOCCC(=O)N3CCc4cc(Cn5nc(-c6ccc7oc(N)nc7c6)c6c(N)ncnc65)ccc4C3)[C@H](OC)C2)C[C@@H](O)[C@H](C)/C=C(\C)[C@@H](O)[C@@H](OC)C(=O)[C@H](C)C[C@H](C)/C=C/C=C/C=C/1C |  |  | human patients, plasma | intravenous, 10 mg, cycle 1 day 15, weekly dosing, 1 h infusion, arithmetic mean |  | Tmax | 49.8 min
C=C(CS(=O)(=O)c1cc(C(F)(F)F)cc(C(F)(F)F)c1)C(=O)OCC |  | chemical stability, HPLC-MS | borate buffered saline | pH 10.2, no N-acetyl-lysine |  | degradation rate constant | 0.5 h⁻¹
